Measurements collected from several papers.
± gives the spread as reported.

Structure (SMILES) | target or system | test | test system | setting | how to read | measurement | value
Cc1ncsc1-c1ccc(C(C)NC(=O)C2CC(O)CN2C(=O)C(NC(=O)CCCCCCCCCCN2CCCC(Nc3ncc(Cl)c(Nc4ccccc4S(=O)(=O)C(C)C)n3)C2)C(C)(C)C)cc1 (stereo not drawn) | 22Rv1 | RNA-seq, item: ZNF485 mRNA | – | concentration not given | relative to: DMSO | log2 fold change | -2.2
C[n+]1ccc(/C=N/NC(=O)c2cccc(C(=O)N/N=C/c3cc[n+](C)c4ccccc34)c2)c2ccccc21 | MYC parallel G4 DNA | FRET melting | – | 1 µM, DNA 0.2 µM | – | ΔTm | 5.1 ± 0.1 °C
COc1ccc(NC(=O)CSc2nc3c(oc4ccccc43)c(=O)n2Cc2ccco2)cc1Cl | Mus musculus | gene silencing, high-content imaging | LDR reporter GFP cells | 30 h, retest, mean of two runs | – | Emax | 62%
Nc1ncc(-c2cc(-c3cnn(CC(F)(F)F)c3)ncc2F)nc1C(=O)NC1CNCC(F)C1 (stereo not drawn) | OSR1 | KINOMEscan | – | 1 µM | relative to: DMSO control | remaining binding | 100%
C=CC(=O)N1[C@@H](c2ccc3c(c2)OCO3)c2[nH]c3ccccc3c2C[C@H]1C(=O)N1CCN(C)CC1 | CCNE1 WT-3xFLAG:CDK2 complex | co-IP TMT proteomics, item: KPNB1 | HEK-293T | 20 µM, 6 h | relative to: DMSO | log2 fold change | -0.42
COC1CN([C@H]2CC[C@H]([C@@]3(C)Oc4c(Cl)cc(C(=O)NCc5c(SC)cc(C)[nH]c5=O)c(C)c4O3)CC2)C1 | – | RNA-seq, item: mouse JHY homolog | mouse, HT-1376 xenograft, whole blood | dose not given, PRC2 target gene | relative to: vehicle | log2 fold change | 1.76
O=C(N/N=C/c1cc[n+](Cc2ccccc2)c2ccccc12)c1cc(C(=O)N/N=C/c2cc[n+](Cc3ccccc3)c3ccccc23)ncn1 | MYC parallel G4 DNA | FRET melting | – | 1 µM, DNA 0.2 µM, added: duplex DNA competitor 10 µM | – | ΔTm | 6.7 ± 0.1 °C
C=CC(=O)Nc1cccc(Cn2ncc3cnc(Nc4cnn(CCOC)c4)nc32)c1 | HIPK1 human | binding, KINOMEscan | – | 100 nM | lower = stronger binding | percent of control | 88%
O=C(N/N=C/c1cc[n+](CC2CC2)c2ccccc12)N/N=C/c1cc[n+](CC2CC2)c2ccccc12 | hp2 hairpin duplex DNA | FRET melting | – | 1 µM, added: ds26 10 µM | – | ΔTm | 0.5 ± 0.2 °C
CN1CCCNC(=O)c2cccc(c2)C(=O)NCCCN(C)CCCNc2cccc3c2C(=O)c2cccc(c2C3=O)NCCC1 | SAS | RNA-Seq, item: WDR77 mRNA | – | 1 µM, 6 h | relative to: untreated cells | log2 fold change | -0.575
CNS(=O)(=O)Nc1nccc(Cc2c(C)c3ccc(Oc4ncccc4F)cc3oc2=O)c1F | Maver1 | cell viability | – | 7 days | – | IC50 | > 1000 nM
C[n+]1cc(/C=N/NC(=O)c2cccc(C(=O)N/N=C/c3cc4ccccc4[n+](C)c3)c2)cc2ccccc21 | MYC parallel G4 DNA | FRET melting | – | 1 µM, DNA 0.2 µM | – | ΔTm | 5.4 ± 0.1 °C

A few entries again:
Structure (SMILES) | target or system | test | test system | setting | how to read | measurement | value
COc1ccc(NC(=O)CSc2nc3c(oc4ccccc43)c(=O)n2Cc2ccco2)cc1Cl | Mus musculus | gene silencing, high-content imaging | LDR reporter GFP cells | 30 h, retest, mean of two runs | – | Emax | 62%
